Published values collected from several papers.
Parts stem from different laboratories: compare values within a part only.

Set 1
Target: Beta-3 adrenergic receptor (ADRB3, Homo sapiens, UniProt P13945)
UniProt P13945, sequence (whole entry, looked up): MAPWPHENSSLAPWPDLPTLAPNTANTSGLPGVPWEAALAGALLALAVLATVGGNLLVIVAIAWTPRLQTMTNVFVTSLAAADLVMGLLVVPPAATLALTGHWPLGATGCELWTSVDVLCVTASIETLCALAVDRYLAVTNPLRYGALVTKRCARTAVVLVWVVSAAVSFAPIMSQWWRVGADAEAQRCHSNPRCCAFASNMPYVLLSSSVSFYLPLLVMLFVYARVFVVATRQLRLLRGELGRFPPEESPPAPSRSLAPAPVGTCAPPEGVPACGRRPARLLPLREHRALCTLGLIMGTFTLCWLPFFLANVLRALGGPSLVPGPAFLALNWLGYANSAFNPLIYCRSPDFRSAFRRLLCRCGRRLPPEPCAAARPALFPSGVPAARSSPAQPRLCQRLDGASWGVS
Effect on: ligand displacement
Concentration: 10 µM
Endpoint: inhibition
SMILES = CC1=C(C#N)C(c2ccc3[nH]nc(C)c3c2)C(C#N)=C(C)N1; result = 21.1%
SMILES = O=S(=O)(NC1CCC(c2cc(F)ccc2F)(S(=O)(=O)c2ccc(Cl)cc2)CC1)C(F)(F)F (stereo not drawn); result = 13.5%
SMILES = CCOc1ccc(S(=O)(=O)Nc2ccc(Cl)cc2C#Cc2cnc(C(=O)O)cc2OC)c2ncccc12; result = -35%
SMILES = O=C1NC(c2ccccn2)Sc2ccccc21 (stereo not drawn); result = 32.4%
SMILES = CNC(=N)NCCC[C@H](NC(=O)[C@H](CC(C)C)NC(=O)NNC(=O)[C@H](Cc1ccccc1)NC(=O)[C@H](CO)NC(=O)[C@H](CC(N)=O)NC(=O)[C@@H](Cc1ccncc1)NC(=O)[C@H](N)Cc1ccc(O)cc1)C(=O)N[C@@H](Cc1ccccc1)C(N)=O; result = 7.1%
SMILES = Cc1ncc(-c2cc(Cl)ccc2F)cc1-n1c(=O)n(CC(N)=O)c2ccccc21; result = 9.94%
SMILES = C[C@H](c1ccc(F)cc1)N(Cc1cccc(C(=O)O)c1)C(=O)c1cnc2ccccc2c1; result = 2.81%
SMILES = CCC(F)(F)c1cc(N2CCC(S(C)(=O)=O)CC2)nc2sc(C(N)=O)c(N)c12; result = 18%
SMILES = NS(=O)(=O)c1cc(NC(=O)Cc2ccccc2)ccc1Oc1cccc(Cl)c1; result = 46.3%
SMILES = COc1cc(C(=O)O)ncc1C#Cc1ccccc1NS(=O)(=O)c1cccc2c(N(C)C)ccnc12; result = -19%
SMILES = CN1CCN(c2cnc3c(C4CCN(C(=O)c5ccc(OC(F)(F)F)cc5N)CC4)ncnc3c2)CC1; result = -19.7%
SMILES = COCCOc1nc(-c2ccc(Cl)nc2)nc2c1CN(C(=O)c1ncn3ccccc13)CC2; result = 1.51%
SMILES = Nc1nc(NCc2ccccc2)nc(-c2cccc(CO)c2)n1; result = 17.8%

Set 2
Target: PABPC1L2, full length, GST fusion (mouse, UniProt A0ABA7IW68)
Technique: RNAcompete
Form: RNA
Medium: in vitro
Concentration: 20 nM
Setting: 7-mer, probes averaged, single round
Reference: mean of 7-mers
Reading: higher = stronger binding
Endpoint: 7-mer Z-score
Target sequence (chain): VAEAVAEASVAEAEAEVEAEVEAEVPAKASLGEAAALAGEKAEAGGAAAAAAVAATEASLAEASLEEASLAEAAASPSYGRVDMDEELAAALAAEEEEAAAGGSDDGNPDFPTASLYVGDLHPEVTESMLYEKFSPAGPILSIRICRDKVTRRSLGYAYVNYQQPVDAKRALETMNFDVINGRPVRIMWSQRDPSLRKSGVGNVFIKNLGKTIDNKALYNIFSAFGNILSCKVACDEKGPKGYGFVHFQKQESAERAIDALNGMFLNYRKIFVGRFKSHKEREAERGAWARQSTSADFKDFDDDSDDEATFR
Sequence = CGUUUAC; result = -0.315
Sequence = CCGGUUG; result = -0.38
Sequence = GACAGUC; result = -0.219
Sequence = UCGGUGC; result = -0.115
Sequence = CACAAAG; result = 0.742
Sequence = UUUUUGA; result = 0.0551
Sequence = CGGUGAU; result = -0.0192
Sequence = AACUGAC; result = 0.336

Set 3
Target: TAR DNA-binding protein 43, full length, His tag (TARDBP, Homo sapiens, UniProt Q13148, residues 1-414)
Technique: RNA Bind-n-Seq
Form: RNA
Medium: in vitro
Concentration: 20 nM
Setting: 6-mer, flanks averaged, single round
With: 150 mM KCl
Reference: input library
Reading: higher = stronger binding
Endpoint: 6-mer enrichment (R)
Sequence = AGGACA; result = 0.889
Sequence = AAAGCA; result = 0.643
Sequence = UUAAUU; result = 0.627
Sequence = UGGAUC; result = 0.743
Sequence = UUGGAG; result = 1.32
Sequence = UGGAGC; result = 1.35
Sequence = AAGGCA; result = 0.845
Sequence = AAGAAA; result = 0.744

Mixed results
SMILES = O=C(Nc1cc(Cl)ccc1O)Nc1cc(C(F)(F)F)ccc1Cl; target or system = mouse MPNST tumor cells; assay = high-content immunofluorescence imaging, refers to: nuclear SOX9; conditions = 10 µM, 12 h, mean of 2 replicates; how to read = reference: DMSO control, higher = more nuclear SOX9; endpoint = nuclear SOX9 intensity; result = 112 % of DMSO
SMILES = CCN1CCCC1CNC(=O)C1CCCN(c2ncnc3[nH]cnc23)C1 (stereo not drawn); test system = mouse, microsomes or S9; conditions = 2 µM, 0.5 h; endpoint = remaining compound; result = 73.4%
SMILES = N=C(N)SCCc1ccc(OCc2ccc([N+](=O)[O-])cc2)cc1; target or system = mouse MPNST tumor cells; assay = high-content immunofluorescence imaging, refers to: nuclear SOX9; conditions = 10 µM, 12 h, mean of 2 replicates; how to read = reference: DMSO control, higher = more nuclear SOX9; endpoint = nuclear SOX9 intensity; result = 177 % of DMSO
SMILES = COc1cc(-c2nc3c(c(=O)[nH]c(=O)n3CC(C)C)n2CC(C)C)cc(OC)c1OC; test system = mouse, microsomes or S9; conditions = 2 µM, 0.5 h; endpoint = remaining compound; result = 49.3%

Excerpt of the above (set 2):
Sequence = CGUUUAC; result = -0.315
Sequence = CGGUGAU; result = -0.0192
Sequence = UUUUUGA; result = 0.0551
